Published values from different studies.
Compare with care: the assays were run in different laboratories. “And” joins repeats or separate records; there may be more than shown.
Oprk1: Kappa-type opioid receptor (Oprk1, Rattus norvegicus, UniProt P34975)
Sigmar1: Sigma non-opioid intracellular receptor 1 (Sigmar1, Rattus norvegicus, UniProt Q9R0C9)
Phospholipase D2: Phospholipase D2 (Homo sapiens, UniProt O14939)

| SMILES | target | assay | system | conditions | scale | selectivity ratio |
| --- | --- | --- | --- | --- | --- | --- |
| CC(=O)N(C)[C@@H](Cc1ccccc1)C(=O)N[C@@H](Cc1ccccc1)C(=O)N[C@@H](CC1CCCCC1)C(=O)N[C@@H](CCCNC(=N)N)C(=O)N[C@@H](CC(C)C)C(=O)N[C@@H](CCCNC(=N)N)C(=O)N[C@@H](CCCNC(=N)N)C(=O)N[C@H](C)C(=O)N[C@@H](CCCNC(=N)N)C(=O)N1CCC[C@H]1C(=O)N[C@@H](CCCCN)C(N)=O | Oprk1 | binding, [3H]diprenorphine competition | CHO cells | – | baseline: Ki mu over Ki kappa, higher = more kappa-selective | 755 |
| CCCc1ccc2c(c1)sc(=O)n2CCCCCCN1CCCCCC1 | Sigmar1 | – | – | – | baseline: Ki sigma-2 over Ki sigma-1 | 0.4 |
| CN[C@@H](C)C(=O)N[C@H]1CN(C(=O)Cc2ccccc2)CC[C@H]2CC[C@@H](C(=O)NCc3ccc(C(F)(F)F)cc3)N2C1=O | Baculoviral IAP repeat-containing protein 2, BIR3 domain (BIRC2, Homo sapiens, UniProt Q13490) | fluorescence polarization | – | – | baseline: Ki XIAP over Ki cIAP1 | 933 |
| O=C(O[C@H](CO)C(F)(F)F)N1C[C@@H]2[C@H](C1)[C@H]2c1ccn(-c2ccc(F)nc2)n1 | Sodium-dependent noradrenaline transporter (SLC6A2, Homo sapiens, UniProt P23975) | – | – | – | baseline: NET Ki over MAGL IC50 | > 400 fold |
| C[C@@]12COc3ccc(OCc4ccccc4)cc3[C@@H]1CCN2 | Sigma non-opioid intracellular receptor 1 (SIGMAR1, Homo sapiens, UniProt Q99720) | binding, radioligand binding | – | – | baseline: sigma-1 over TMEM97 (sigma-2) | 4 fold |
| Cc1cc(N2CC[C@@](C#N)(C3(C)CC3)C2=O)cc(C(=O)NCc2cc(F)cc(-c3cnn(C)c3)c2)n1 | Proline--tRNA ligase (Plasmodium falciparum, UniProt Q8I5R7) | aminoacylation activity, inhibitor, malachite green | – | – | baseline: human over P. falciparum IC50 | ~1 and 0.9 |
| CCCc1ccc2c(c1)sc(=O)n2CCCCN1CCCCCC1 | Sigmar1 | – | – | – | baseline: Ki sigma-2 over Ki sigma-1 | 0.7 |
| CCCCCCCCCCCCCCN(O)C(=O)CCCCC[C@@H]1NC(=O)[C@H]2CCCN2C(=O)[C@H](Cc2ccccc2)NC(=O)[C@H](Cc2ccccc2)NC1=O | Histone deacetylase 11 (HDAC11, Homo sapiens, UniProt Q96DB2) | enzyme activity, fluorogenic | – | – | baseline: Ki HDAC1 over Ki HDAC11 | < 10 |
| O=C(NCCN1CCC2(CC1)C(=O)NCN2C(=O)C1CCC1)c1ccc2ccccc2c1 | Phospholipase D2 | – | – | – | baseline: PLD1 IC50 over Phospholipase D2 IC50 | 12.5 fold |
| O=C(Cc1ccccc1Nc1c(Cl)cccc1Cl)NNC(=S)Nc1ccc(Cl)c(Cl)c1 | Amine oxidase [flavin-containing] B (MAOB, Homo sapiens, UniProt P27338) | fluorometric | – | – | baseline: IC50 hMAO-A over IC50 hMAO-B | 250 |
| CC(C)[C@H]1NC(=O)[C@H](CO)NC(=O)c2cc3cc(c2)C(=O)NC[C@H](NC(=O)[C@H](Cc2c[nH]cn2)NC(=O)[C@H](Cc2ccc(C(F)(F)P(=O)(O)O)cc2)NC(=O)[C@@H]2CCCN2C1=O)C(=O)N[C@@H](Cc1ccccc1)C(=O)N[C@@H](Cc1ccc2ccccc2c1)C(=O)N[C@@H](CCCNC(=N)N)C(=O)N[C@@H](CCCNC(=N)N)C(=O)N[C@@H](CCCNC(=N)N)C(=O)N[C@@H](CCCNC(=N)N)C(=O)N[C@H](C(=O)N[C@@H](CCCCN)C(N)=O)CNC3=O | Tyrosine-protein phosphatase non-receptor type 1 (PTPN1, Homo sapiens, UniProt P18031) | enzyme activity | – | – | baseline: PTPN1 over TCPTP | 17 fold |
| Oc1ccc(C2COc3cc(O)ccc3C2)cc1 (racemic) | Estrogen receptor (ESR1, Homo sapiens, UniProt P03372) | array formation | PRL-HeLa | – | baseline: ERα EC50 versus ERβ EC50 | > 5 fold |
| CC(C)C[C@H](NC(=O)[C@H](CCCNC(=N)N)NC(=O)[C@H](Cc1ccccc1)NC(=O)[C@H](Cc1ccccc1)NC(=O)[C@H](Cc1ccccc1)N(C)C(=O)COc1ccccc1)C(=O)N[C@@H](CCCNC(=N)N)C(=O)N[C@@H](CCCNC(=N)N)C(=O)N[C@H](C)C(=O)N[C@@H](CCCNC(=N)N)C(=O)N1CCC[C@H]1C(=O)N[C@@H](CCCCN)C(N)=O | Oprk1 | binding, [3H]diprenorphine competition | CHO cells | – | baseline: Ki mu over Ki kappa, higher = more kappa-selective | 198 |
| O=c1sc2ccccc2n1CCN1CCCC1 | Sigmar1 | – | – | – | baseline: Ki sigma-2 over Ki sigma-1 | 14 |
| CC(C)NC(=O)[C@H](CCc1ccccc1)NC(=O)[C@H](CC(=O)NCC(C)(C)C)NC(=O)CCc1ccccc1 | Proteasome component C5/PSMB5 (Homo sapiens, UniProt P20618+P28074) | Proteasome-Glo β5 | B-cell lymphoma lines | 1 h | baseline: IC50 differences among OCI-Ly10, WSUDLCL2 and Karpas-1106P | ~22 fold |
| C[C@@H]1NC(=O)[C@H](CCCNC(=N)N)NC(=O)[C@H](NC(=O)[C@H](Cc2ccccc2)NC(=O)CNC(=O)CNC(=O)[C@H](Cc2ccc(O)cc2)NCc2ccccc2)CC(=O)NC[C@@H](C(=O)N[C@@H](CCCNC(=N)N)C(=O)N2CCC[C@H]2C(=O)N[C@@H](CCCCN)C(N)=O)NC1=O | Oprk1 | binding | – | – | baseline: Ki(MOR) over Ki(KOR) | > 34 |
| CCCC(=O)c1ccc2c(c1)sc(=O)n2CCCCCN1CCCCCC1 | Sigmar1 | – | – | – | baseline: Ki sigma-2 over Ki sigma-1 | 0.4 |
| N[C@@H](CCC(=O)N[C@@H](CS[Se]Cc1ccc(C(=O)Nc2cc(C(F)(F)F)c(Br)c(C(F)(F)F)c2)cc1)C(=O)NCC(=O)O)C(=O)O | Cathepsin B (CTSB, Homo sapiens, UniProt P07858) | enzyme activity, inhibitor | – | together with: glutathione 1 mM | baseline: IC50 cathepsin B over mPTPA (M. tuberculosis) | > 100 |
| O=c1sc2ccccc2n1CCCCCN1CCCCCC1 | Sigmar1 | – | – | – | baseline: Ki sigma-2 over Ki sigma-1 | 0.4 |
| COc1ccc(C[C@@H]2NC(=O)CC3(CCCCC3)SSC[C@@H](C(=O)N3CCC[C@H]3C(=O)N[C@@H](CCCNC(=N)N)C(=O)NCC(N)=O)NC(=O)[C@H](CC(N)=O)NC(=O)[C@H](CCC(N)=O)NC(=O)[C@H](Cc3ccccc3)NC2=O)cc1 | oxytocin receptor (Mesocricetus auratus, UniProt A0A1U7Q6Y0) | competition binding | hamster brain sections | – | baseline: OTR over V1aR Ki | 31.1 |
| CCCCc1ccc2c(c1)sc(=O)n2CCCCN1CCCCCC1 | Sigmar1 | – | – | – | baseline: Ki sigma-2 over Ki sigma-1 | 2.4 |
| CC(=O)N[C@@H](Cc1ccccc1)C(=O)N[C@@H](Cc1ccccc1)C(=O)N[C@@H](Cc1c[nH]c2ccccc12)C(=O)N[C@@H](CCCNC(=N)N)C(=O)N[C@@H](CC(C)C)C(=O)N[C@@H](CCCNC(=N)N)C(=O)N[C@@H](CCCNC(=N)N)C(=O)N[C@H](C)C(=O)N[C@@H](CCCNC(=N)N)C(=O)N1CCC[C@H]1C(=O)N[C@@H](CCCCN)C(N)=O | Oprk1 | binding, [3H]diprenorphine competition | CHO cells | – | baseline: Ki mu over Ki kappa, higher = more kappa-selective | 73 |
| CCCC(=O)c1ccc2c(c1)sc(=O)n2CCCN1CCCCCC1 | Sigmar1 | – | – | – | baseline: Ki sigma-2 over Ki sigma-1 | 39 |
| COC(=O)N(C)[C@@H](Cc1ccccc1)C(=O)N[C@@H](Cc1ccccc1)C(=O)N[C@@H](Cc1ccc(O)cc1)C(=O)N[C@@H](CCCNC(=N)N)C(=O)N[C@@H](CC(C)C)C(=O)N[C@@H](CCCNC(=N)N)C(=O)N[C@@H](CCCNC(=N)N)C(=O)N[C@H](C)C(=O)N[C@@H](CCCNC(=N)N)C(=O)N1CCC[C@H]1C(=O)N[C@@H](CCCCN)C(N)=O | Oprk1 | binding, [3H]diprenorphine competition | CHO cells | – | baseline: Ki mu over Ki kappa, higher = more kappa-selective | 224 |
| O=C(NCCN1CCC2(CC1)C(=O)NCN2Cc1ccccc1F)c1ccc2ccccc2c1 | Phospholipase D2 | – | – | – | baseline: PLD1 IC50 over Phospholipase D2 IC50 | 22 fold |
| CCC(=O)c1ccc2c(c1)sc(=O)n2CCCN1CCCCCC1 | Sigmar1 | – | – | – | baseline: Ki sigma-2 over Ki sigma-1 | 83 |
| CC(=O)N(C)[C@@H](Cc1ccccc1)C(=O)N[C@@H](Cc1ccccc1)C(=O)N[C@@H](Cc1c[nH]c2ccccc12)C(=O)N[C@@H](CCCNC(=N)N)C(=O)N[C@@H](CC(C)C)C(=O)N[C@@H](CCCNC(=N)N)C(=O)N[C@@H](CCCNC(=N)N)C(=O)N[C@H](C)C(=O)N[C@@H](CCCNC(=N)N)C(=O)N1CCC[C@H]1C(=O)N[C@@H](CCCCN)C(N)=O | Oprk1 | binding, [3H]diprenorphine competition | CHO cells | – | baseline: Ki mu over Ki kappa, higher = more kappa-selective | 230 |

Excerpt of the above:
| SMILES | target | assay | system | conditions | scale | selectivity ratio |
| --- | --- | --- | --- | --- | --- | --- |
| O=C(Cc1ccccc1Nc1c(Cl)cccc1Cl)NNC(=S)Nc1ccc(Cl)c(Cl)c1 | Amine oxidase [flavin-containing] B (MAOB, Homo sapiens, UniProt P27338) | fluorometric | – | – | baseline: IC50 hMAO-A over IC50 hMAO-B | 250 |
| CC(C)[C@H]1NC(=O)[C@H](CO)NC(=O)c2cc3cc(c2)C(=O)NC[C@H](NC(=O)[C@H](Cc2c[nH]cn2)NC(=O)[C@H](Cc2ccc(C(F)(F)P(=O)(O)O)cc2)NC(=O)[C@@H]2CCCN2C1=O)C(=O)N[C@@H](Cc1ccccc1)C(=O)N[C@@H](Cc1ccc2ccccc2c1)C(=O)N[C@@H](CCCNC(=N)N)C(=O)N[C@@H](CCCNC(=N)N)C(=O)N[C@@H](CCCNC(=N)N)C(=O)N[C@@H](CCCNC(=N)N)C(=O)N[C@H](C(=O)N[C@@H](CCCCN)C(N)=O)CNC3=O | Tyrosine-protein phosphatase non-receptor type 1 (PTPN1, Homo sapiens, UniProt P18031) | enzyme activity | – | – | baseline: PTPN1 over TCPTP | 17 fold |
| Oc1ccc(C2COc3cc(O)ccc3C2)cc1 (racemic) | Estrogen receptor (ESR1, Homo sapiens, UniProt P03372) | array formation | PRL-HeLa | – | baseline: ERα EC50 versus ERβ EC50 | > 5 fold |
| CC(C)C[C@H](NC(=O)[C@H](CCCNC(=N)N)NC(=O)[C@H](Cc1ccccc1)NC(=O)[C@H](Cc1ccccc1)NC(=O)[C@H](Cc1ccccc1)N(C)C(=O)COc1ccccc1)C(=O)N[C@@H](CCCNC(=N)N)C(=O)N[C@@H](CCCNC(=N)N)C(=O)N[C@H](C)C(=O)N[C@@H](CCCNC(=N)N)C(=O)N1CCC[C@H]1C(=O)N[C@@H](CCCCN)C(N)=O | Oprk1 | binding, [3H]diprenorphine competition | CHO cells | – | baseline: Ki mu over Ki kappa, higher = more kappa-selective | 198 |
